{"data": "Results from different studies", "B1": "colicin E1 T-domain (41–120); sequence looked up; chain GGSKSESSAAIHATAKWSTAQLKKTQAEQAARAKAAAEAQAKAKANRDALTQRLKDIVNEALRHNASRTPSATELAHANN", "note": "Compare with care: the assays were run in different laboratories. ± marks the error that the study gave."}
{"Substance": "N=C(N)NCCC[C@@H]1NC(=O)[C@H](CCCCNC(=O)CNC(=O)CNC(=O)CNC(=O)CC[C@H](NC(=O)CCOCCOCCOCCOCCNC(=O)c2ccc(NN)nc2)C(=O)NCC(=O)NCC(=O)NCC(=O)NCCCC[C@@H]2NC(=O)[C@@H](Cc3ccccc3)NC(=O)[C@H](CC(=O)O)NC(=O)CNC(=O)[C@H](CCCNC(=N)N)NC2=O)NC(=O)[C@@H](Cc2ccccc2)NC(=O)[C@H](CC(=O)O)NC(=O)CNC1=O [technetium-99m labelled]", "assay": "γ-counting", "test system": "female athymic nude mice, U-87 MG xenograft, intestine", "setting": "intravenous, 2 h", "measurement": "tissue uptake", "result": "4.74 ± 1.09 %ID/g"}
{"Substance": "melittin", "assay": "CD titration", "test system": "POPC 50% POPG 50% vesicles", "setting": "pH 7.0, 25 °C", "measurement": "free energy of partitioning", "result": "-7.5 kcal/mol"}
{"Substance": "CC(C)C[C@@H]1NC(=O)[C@@H]2CSSC[C@@H](C(=O)NCC(N)=O)NC(=O)[C@H](Cc3ccccc3)NC(=O)CNC(=O)[C@H](CC(N)=O)NC(=O)[C@@H]3CCCN3C(=O)CNC(=O)[C@@H]3CSSC[C@H](NC(=O)[C@H](CO)NC(=O)[C@H](CO)NC(=O)[C@H](C)NC(=O)[C@@H]4CCCN4C(=O)[C@H](CO)NC(=O)[C@H](CC(=O)O)NC(=O)CNC(=O)[C@H](CCCNC(=N)N)NC(=O)CNC(=O)[C@H]([C@@H](C)O)NC(=O)[C@H](C(C)C)NC(=O)[C@@H](NC(=O)CNC(=O)CN4CCN(CC(=O)O)CCN(CC(=O)O)CCN(CC(=O)O)CC4)CSSC[C@H](NC(=O)CNC(=O)[C@H](C)NC1=O)C(=O)N[C@@H](C(C)C)C(=O)N3)C(=O)N[C@@H](CO)C(=O)N[C@@H](CCC(N)=O)C(=O)N[C@@H](CC(=O)O)C(=O)N[C@@H](CO)C(=O)N[C@@H](CC(=O)O)C(=O)N2 [copper-64 labelled]", "assay": "64Cu microPET", "test system": "female nude mice, U-87 MG xenograft, tumour", "setting": "intravenous, 1 h", "measurement": "tissue uptake", "result": "1.48 ± 0.53 %ID/g"}
{"Substance": "B1 (colicin E1 T-domain)", "assay": "far-UV CD", "test system": "peptide, 50 mM sodium phosphate", "measurement": "helical content", "result": "29 ± 2%"}
{"Substance": "CC(=O)N(O)CCCCCNC(=O)CCC(=O)N(O)CCCCCNC(=O)CCC(=O)N(O)CCCCCNC(=S)Nc1ccc(NC(=S)NCCOCCOCCOCCOCCC(=O)N[C@@H](CCC(=O)NCCOCCOCCOCCOCCC(=O)NCCCC[C@@H]2NC(=O)[C@@H](Cc3ccccc3)NC(=O)[C@H](CC(=O)O)NC(=O)CNC(=O)[C@H](CCCNC(=N)N)NC2=O)C(=O)NCCOCCOCCOCCOCCC(=O)NCCCC[C@@H]2NC(=O)[C@@H](Cc3ccccc3)NC(=O)[C@H](CC(=O)O)NC(=O)CNC(=O)[C@H](CCCNC(=N)N)NC2=O)cc1 [zirconium-89 labelled]", "test system": "athymic nude mice female tumour-bearing, tumor", "setting": "intravenous, dose not given, 4 h, together with: unlabelled c(RGDfK) 300 µg", "measurement": "tissue uptake", "result": "0.4 ± 0.01 %ID/g"}
{"Substance": "N=C(N)NCCC[C@@H]1NC(=O)[C@H](CCCCNC(=O)[C@H](CC(=O)O)NC(=O)[C@H](CC(=O)O)NC(=O)[C@H](CC(=O)O)NC(=O)CC[C@H](NC(=O)CCOCCOCCOCCOCCNC(=O)c2ccc(NN)nc2)C(=O)N[C@@H](CC(=O)O)C(=O)N[C@@H](CC(=O)O)C(=O)N[C@@H](CC(=O)O)C(=O)NCCCC[C@@H]2NC(=O)[C@@H](Cc3ccccc3)NC(=O)[C@H](CC(=O)O)NC(=O)CNC(=O)[C@H](CCCNC(=N)N)NC2=O)NC(=O)[C@@H](Cc2ccccc2)NC(=O)[C@H](CC(=O)O)NC(=O)CNC1=O [technetium-99m labelled]", "test system": "U-87 MG xenograft athymic nude mice, spleen", "setting": "intravenous, 60 min, together with: RGD2 14 mg/kg co-injected", "measurement": "tissue uptake", "result": "0.14 ± 0.01 %ID/g"}
{"Substance": "Cc1ccccc1NC(=O)Nc1ccc(CC(=O)N[C@@H](CCCCNC(=O)/C=C/c2cccnc2)C(=O)N[C@@H](CCCC(=O)O)C(=O)NC2(C(=O)NCCOCCOCCOCCOCC(=O)N[C@@H](CCCCNC(=S)Nc3ccc(C[C@H]4CN(CC(=O)O)CCN(CC(=O)O)CCN4CC(=O)O)cc3)C(N)=O)CCCCC2)cc1 [fluorine-18 labelled]", "test system": "female C57BL/6 mice, B16-F10 tumour, kidney", "setting": "intravenous, 2 h", "measurement": "tissue uptake", "result": "5.9 ± 0.5 %ID/g"}
{"Substance": "CSCC[C@H](NC(=O)[C@H](CC(C)C)NC(=O)[C@H](Cc1cnc[nH]1)NC(=O)CNC(=O)[C@@H](NC(=O)[C@H](C)NC(=O)[C@H](Cc1c[nH]c2ccccc12)NC(=O)[C@H](CCC(N)=O)NC(=O)CCCCCCCNC(=O)CN1CCN(CC(=O)O)CCN(CC(=O)O)CCN(CC(=O)O)CC1)C(C)C)C(N)=O", "test system": "ICR SCID mouse (PC-3 tumour), urine and bladder contents", "setting": "intravenous, 185 kBq, 1 h", "measurement": "excreted dose", "result": "72.5 ± 0.96%"}
{"Substance": "COc1cccc2c1C(=O)c1c(O)c3c(c(O)c1C2=O)C[C@@](O)(C(=O)CO)C[C@@H]3O[C@H]1C[C@H](NC(=O)[C@@H]2CCCN2C(=O)CNC(=O)[C@H](CC(C)C)NC(=O)[C@H](C)NC(=O)CP(=O)(O)O)[C@H](O)[C@H](C)O1", "test system": "mouse, E0771 tumour-bearing, tumor", "setting": "intravenous, 92 µmol/kg", "measurement": "Tmax", "result": "5 min"}
{"Substance": "CC(C)[C@H](NC(=O)[C@@H](NC(=O)CCOCCOCCNC(=O)CCCc1cn(CC(O)CN2CCN(CC(=O)O)CCN(CC(=O)O)CCN(CC(=O)O)CC2)nn1)[C@@H](C)O)C(=O)N[C@@H](CCCNC(=N)N)C(=O)N[C@H](C(=O)N[C@@H](CO)C(=O)N[C@@H](C)C(=O)N[C@@H](CC(=O)O)C(=O)O)[C@@H](C)O (stereo partly drawn)", "assay": "quantitative T1 mapping", "test system": "athymic nude mouse, male, LNCaP xenograft, tumour", "setting": "concentration not given, 30 min post-injection", "measurement": "tumour concentration", "result": "20.2 ± 2.2 µM"}
{"Substance": "COc1cccc2c1C(=O)c1c(O)c3c(c(O)c1C2=O)C[C@@](O)(C(=O)CO)C[C@@H]3O[C@H]1C[C@H](NC(=O)[C@H](CC(C)C)NC(=O)[C@H](C)NC(=O)[C@H](CC(C)C)NC(=O)CCNC(=O)CCC(=O)O)[C@H](O)[C@H](C)O1", "test system": "mouse, E0771 tumour-bearing, liver", "setting": "intravenous, 92 µmol/kg", "measurement": "Tmax", "result": "15 min"}
{"Substance": "CCN1C(=CC=CC=CC2=[N+](CCCCCC(=O)NCCCC[C@H](NC(=O)CN3CCN(CC(=O)O)CCN(CC(=O)O)CCN(CC(=O)O)CC3)C(=O)NCC(=O)NCC(=O)N[C@@H](Cc3ccc(O)cc3)C(=O)NCC(=O)N[C@H]3CSSC[C@@H]4NC(=O)CNC(=O)[C@H](C)NC(=O)[C@H](CC(C)C)NC(=O)[C@@H]5CSSC[C@@H](C(=O)NCC(N)=O)NC(=O)[C@H](Cc6ccccc6)NC(=O)CNC(=O)[C@H](CC(N)=O)NC(=O)[C@@H]6CCCN6C(=O)CNC(=O)[C@H](CSSC[C@H](NC(=O)[C@H](CO)NC(=O)[C@H]([C@@H](C)O)NC(=O)[C@@H]6CCCN6C(=O)[C@H](C)NC(=O)[C@H](Cc6c[nH]c7ccccc67)NC(=O)[C@H](CC(=O)O)NC(=O)CNC(=O)[C@H](CCCNC(=N)N)NC(=O)CNC(=O)[C@H](CCC(N)=O)NC(=O)[C@@H]6CCCN6C3=O)C(=O)N[C@@H](CO)C(=O)N[C@@H](CCC(N)=O)C(=O)N[C@@H](CC(=O)O)C(=O)N[C@@H](CO)C(=O)N[C@@H](CC(=O)O)C(=O)N5)NC(=O)[C@H](C(C)C)NC4=O)c3ccc4c(S(=O)(=O)[O-])cc(S(=O)(=O)O)cc4c3C2(C)C)C(C)(C)c2c1ccc1c(S(=O)(=O)O)cc(S(=O)(=O)O)cc21 (single isomer, unassigned) [copper-64 labelled]", "assay": "microPET", "test system": "athymic nude mouse, female, U-87 MG xenograft, tumour", "setting": "intravenous, 1 to 24 h, together with: c(RGDyK) 0.5 µmol blocking", "measurement": "tumour uptake", "result": "1 to 1.5 %ID/g"}
{"note": "A few entries again:"}
{"Substance": "N=C(N)NCCC[C@@H]1NC(=O)[C@H](CCCCNC(=O)CNC(=O)CNC(=O)CNC(=O)CC[C@H](NC(=O)CCOCCOCCOCCOCCNC(=O)c2ccc(NN)nc2)C(=O)NCC(=O)NCC(=O)NCC(=O)NCCCC[C@@H]2NC(=O)[C@@H](Cc3ccccc3)NC(=O)[C@H](CC(=O)O)NC(=O)CNC(=O)[C@H](CCCNC(=N)N)NC2=O)NC(=O)[C@@H](Cc2ccccc2)NC(=O)[C@H](CC(=O)O)NC(=O)CNC1=O [technetium-99m labelled]", "assay": "γ-counting", "test system": "female athymic nude mice, U-87 MG xenograft, intestine", "setting": "intravenous, 2 h", "measurement": "tissue uptake", "result": "4.74 ± 1.09 %ID/g"}
{"Substance": "CCN1C(=CC=CC=CC2=[N+](CCCCCC(=O)NCCCC[C@H](NC(=O)CN3CCN(CC(=O)O)CCN(CC(=O)O)CCN(CC(=O)O)CC3)C(=O)NCC(=O)NCC(=O)N[C@@H](Cc3ccc(O)cc3)C(=O)NCC(=O)N[C@H]3CSSC[C@@H]4NC(=O)CNC(=O)[C@H](C)NC(=O)[C@H](CC(C)C)NC(=O)[C@@H]5CSSC[C@@H](C(=O)NCC(N)=O)NC(=O)[C@H](Cc6ccccc6)NC(=O)CNC(=O)[C@H](CC(N)=O)NC(=O)[C@@H]6CCCN6C(=O)CNC(=O)[C@H](CSSC[C@H](NC(=O)[C@H](CO)NC(=O)[C@H]([C@@H](C)O)NC(=O)[C@@H]6CCCN6C(=O)[C@H](C)NC(=O)[C@H](Cc6c[nH]c7ccccc67)NC(=O)[C@H](CC(=O)O)NC(=O)CNC(=O)[C@H](CCCNC(=N)N)NC(=O)CNC(=O)[C@H](CCC(N)=O)NC(=O)[C@@H]6CCCN6C3=O)C(=O)N[C@@H](CO)C(=O)N[C@@H](CCC(N)=O)C(=O)N[C@@H](CC(=O)O)C(=O)N[C@@H](CO)C(=O)N[C@@H](CC(=O)O)C(=O)N5)NC(=O)[C@H](C(C)C)NC4=O)c3ccc4c(S(=O)(=O)[O-])cc(S(=O)(=O)O)cc4c3C2(C)C)C(C)(C)c2c1ccc1c(S(=O)(=O)O)cc(S(=O)(=O)O)cc21 (single isomer, unassigned) [copper-64 labelled]", "assay": "microPET", "test system": "athymic nude mouse, female, U-87 MG xenograft, tumour", "setting": "intravenous, 1 to 24 h, together with: c(RGDyK) 0.5 µmol blocking", "measurement": "tumour uptake", "result": "1 to 1.5 %ID/g"}
